Results pooled from the literature.
Each numbered part is a random draw from the data of one study; scales do not carry over between parts.

Study 1
Target: Histone acetyltransferase KAT6A, winged helix 2, GST fusion (KAT6A, Homo sapiens, UniProt Q92794, residues 85-181)
Technique: protein binding microarray
Molecule type: double-stranded DNA, one strand shown
Sample: in vitro
Tested at: not given
Notes: 8-mer, flanks averaged, mean of 2 arrays, mostly near background
Reference: not given
Reading: higher = stronger binding
Residues (chain): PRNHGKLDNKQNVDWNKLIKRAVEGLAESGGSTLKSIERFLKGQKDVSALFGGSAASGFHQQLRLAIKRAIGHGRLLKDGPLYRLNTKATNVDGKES
| Oligonucleotide | E-score |
| --- | --- |
| ACGGAGAG | 0.0282 |
| TTCGTCAA | 0.121 |
| GCTTTCCC | 0.112 |
| GCACAGAA | 0.107 |

Study 2
Target: Prothrombin, mature alpha-thrombin (F2, Homo sapiens, UniProt P00734)
Technique: aptamer microarray, sandwich
Molecule type: DNA with 2'F-ANA
Sample: in vitro
Tested at: 200 nM
Notes: whole 15-mer aptamer, many near background
Together with: Cy3 exosite-II aptamer, 400 nM
Reading: higher = stronger binding
| Oligonucleotide | mean fluorescence intensity [a.u.] |
| --- | --- |
| GGTTGGTGTGGTTGG (2'F-ANA at 1 2 6 9 10 11 12 14 15) | 54.1 |
| GGTTGGTGTGGTTGG (2'F-ANA at 1 2 3 5 7 8 10 14 15) | 51.3 |
| GGTTGGTGTGGTTGG (2'F-ANA at 1 5 8 9 10 11 12 13 15) | 49 |
| GGTTGGTGTGGTTGG (2'F-ANA at 1 6 7 8 9 10 11) | 76.8 |

Study 3
Target: Interferon regulatory factor 5, full length, phosphomimetic (IRF5, Homo sapiens, UniProt Q13568-2, residues 1-514, S451D/S453D/S456D/S462D)
Technique: protein-binding microarray
Molecule type: double-stranded DNA, one strand shown
Sample: in vitro
Tested at: 940 nM top
Notes: 60-bp whole probe
Together with: salmon DNA 0.4 mg/ml
Reference: random background probes
Reading: higher = stronger binding
| Oligonucleotide | fitted relative affinity |
| --- | --- |
| GCCTAGCACTTAGAACTGAGTCTCGGTTAGTGCTAGGTCTTGATTCGCTTGACGCTGCTG | 3.26 z-score |
| GCCTAGCACTTAAGTATCGGTATCGGTTAGTGCTAGGTCTTGATTCGCTTGACGCTGCTG | 11.3 z-score |
| GCCTAGCACTTAGGTTTTGGGTTTCGGTTAGTGCTAGTCTTGATTCGCTTGACGCTGCTG | 7.47 z-score |
| GCCTAGCACAGGTTTCTATATTTGCTTCAGTGCTAGGTCTTGATTCGCTTGACGCTGCTG | 5.67 z-score |

Further values, each from its own experiment
| Substance | target | test | test system | conditions | scale | measurement | result |
| --- | --- | --- | --- | --- | --- | --- | --- |
| PhoQ, residues 284 288 289 292 302 303 SSTMSV | PhoP, residues 12 14 15 18 19 LHSVW (Escherichia coli, UniProt P23836) | Sort-seq, refers to: YFP reporter | E. coli | PhoQ-PhoP variant library, together with: 10 µM Mg2+ | reference: high Mg2+ state, higher = stronger signaling | fold induction | 9.29 |

For quick reference, copied from above (study 2):
| Oligonucleotide | mean fluorescence intensity [a.u.] |
| --- | --- |
| GGTTGGTGTGGTTGG (2'F-ANA at 1 2 3 5 7 8 10 14 15) | 51.3 |
